Measurements from different studies.
Every numbered part comes from another study and shows a few of its results, in no order. Changes are numbered by the printed parent chain.

Study 1
Target: Sal-like protein 4, full length isoform B (SALL4, Homo sapiens, UniProt Q9UJQ4-2, residues 1-616)
Technique: universal PBM
Molecule type: double-stranded DNA, one strand shown
Medium: in vitro
Concentration: not given
Notes: 8-mer, flanks averaged, mean of replicates
Reading: higher = stronger binding
Quantity: E-score
AATCCTGT: 0.193
AATTCACC: 0.102
AAACGGTT: -0.0779
GGTGTTGA: -0.035
CCCTTATA: 0.226
ATTTATCC: 0.287
CACCTAGA: -0.118
CCTCGCAC: -0.177
TACCACTA: 0.0692
CTATTTGC: 0.128
AGGCTCAG: -0.0699
CATCGCAC: -0.128
AGTCTTTC: -0.0393
GGCGAGTA: -0.172
AATTGACC: 0.0543
GATCAAGA: 0.122
ATGCTGAG: -0.224
AGAGATCC: -0.0356
AACGACCG: -0.117

Study 2
Target: Interferon regulatory factor 7, full length, phosphomimetic (IRF7, Homo sapiens, UniProt Q92985, residues 1-503, S471D/S472D/S475D/S476D/S477D/S483D/S484D/S487D)
Sequence of UniProt Q92985 (whole entry, unmodified, looked up): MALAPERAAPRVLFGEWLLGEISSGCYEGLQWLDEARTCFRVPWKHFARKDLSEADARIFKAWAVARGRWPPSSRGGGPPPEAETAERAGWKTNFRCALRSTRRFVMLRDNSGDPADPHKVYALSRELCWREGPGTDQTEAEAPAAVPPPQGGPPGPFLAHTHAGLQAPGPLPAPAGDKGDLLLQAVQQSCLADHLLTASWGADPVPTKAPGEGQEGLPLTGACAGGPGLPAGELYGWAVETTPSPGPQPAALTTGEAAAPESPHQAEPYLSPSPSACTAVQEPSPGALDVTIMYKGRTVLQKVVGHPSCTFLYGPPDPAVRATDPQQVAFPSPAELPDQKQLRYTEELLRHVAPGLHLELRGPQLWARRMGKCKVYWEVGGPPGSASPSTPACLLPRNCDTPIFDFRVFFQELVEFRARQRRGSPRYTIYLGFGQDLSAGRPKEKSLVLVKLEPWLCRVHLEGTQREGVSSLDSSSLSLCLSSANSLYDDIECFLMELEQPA
Technique: protein-binding microarray
Molecule type: double-stranded DNA, one strand shown
Medium: in vitro
Concentration: 2200 nM top
Notes: 60-bp whole probe
Together with: salmon DNA 0.4 mg/ml
Reference: random background probes
Reading: higher = stronger binding
Quantity: fitted relative affinity
All sequences stand within: GCCTAGCAC … GTCTTGATTCGCTTGACGCTGCTG
TTAGATATTAAACTGATAGGGTGCTAG: -0.723 z-score
GACGGTCTCCTTAGCCTGACGTGCTAG: 0.272 z-score
GACGATCTCCGTATCGAGACGTGCTAG: 0.479 z-score
TTAGGACTGTGGTATCGGTTAGTGCTA: 0.107 z-score
GACGGTCTCGCTTTCGGGACGTGCTAG: 4.07 z-score
GACGGACTGGGTCTCGGGACGTGCTAG: -0.972 z-score
GACGATAACGGGTATCGAGACGTGCTA: -0.293 z-score
GACGGATTCGGGTATCGGGACGTGCTA: 0.903 z-score
GACGGTATCGGGTTTCGGTACGTGCTA: 2.3 z-score
CCCATTCTCAGCCCTGCGCATGTGCTA: 1.15 z-score
TTAGCTATCCTACTGCTTTAGTGCTAG: 0.819 z-score
TTAGATTTAGGGTTTCGATTAGTGCTA: 2.02 z-score
TTAGGTTTCGACACTGGGTCAGTGCTA: 2.19 z-score
CAATATATATATTATATATTTGTGCTA: 0.167 z-score
TTAGGTTCTCTTTTCCTTTAGTGCTAG: 2.43 z-score
TTATGTTTCGGGTTTCGGTTAGTGCTA: 10.1 z-score
CACGATATCAGACTGGAGACGTGCTAG: 0.401 z-score

Study 3
Target: Histone acetyltransferase KAT6A, winged helix 1, GST fusion (KAT6A, Homo sapiens, UniProt Q92794, residues 1-85)
Technique: protein binding microarray
Molecule type: double-stranded DNA, one strand shown
Medium: in vitro
Concentration: not given
Notes: 8-mer, flanks averaged, mean of 2 arrays, mostly near background
Reference: not given
Reading: higher = stronger binding
Quantity: E-score
Residues (chain): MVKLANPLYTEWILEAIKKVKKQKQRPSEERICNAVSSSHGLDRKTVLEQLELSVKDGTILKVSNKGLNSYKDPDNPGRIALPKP
AATAGGCG: 0.092
TAATCTCA: -0.101
AGGTACGG: 0.27
GTGCGTTA: 0.186
AAAAGCAC: -0.172
CCGAGACC: 0.155
GGAATCAC: -0.121
AAGAGAAA: -0.053
CAGGCCAA: -0.14
ATGTAACG: 0.0563
ATAGAGGG: -0.0618
CAGGGGGG: -0.241
CCCCGCTA: 0.347
CCGAAGGA: 0.0109
AACGCTTG: -0.0602
CTTCGGTA: -0.0535
ACTATTCA: -0.183
ACCACTAC: -0.116
GTTACAGA: -0.123
ATAATCTC: -0.0528

Study 4
Target: ABI1, truncated, D143A, DHFR fusion (Arabidopsis thaliana)
Technique: DHFR PCA, deep sequencing
Medium: yeast
Notes: methotrexate growth selection, single substitutions
Together with: (+)-ABA 0.032 µM
Reference: wild-type fitted maximum
Reading: higher = stronger binding
Quantity: relative binding score
Starting sequence: PYL1, truncated, DHFR fusion (Arabidopsis thaliana); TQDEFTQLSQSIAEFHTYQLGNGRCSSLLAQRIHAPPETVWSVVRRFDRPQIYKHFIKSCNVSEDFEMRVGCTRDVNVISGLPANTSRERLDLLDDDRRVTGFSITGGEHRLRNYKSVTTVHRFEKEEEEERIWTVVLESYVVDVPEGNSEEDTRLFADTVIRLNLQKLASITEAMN
T106V: 75%
P50A: -4.11%
S63G: 38.1%
I79K: 6.63%
S59W: 2.71%
F5H: 6.69%
G23A: 4.52%
R132A: 41.4%
L166N: -0.369%
G102Y: -7.54%
N114K: -4.17%
S117Y: -2.62%
V43L: 15.7%
W134D: 19.4%
S11I: 25.3%
D3F: 21.3%
D65R: 3.79%
G71P: 6.98%
R132S: 54.2%

Study 5
Target: CCND1, cyclin fold, Cln2 fusion (human)
Technique: yeast growth competition, sequencing
Medium: yeast
Notes: weak parent motif
Reference: not given
Reading: higher = stronger binding
Quantity: normalised enrichment score
Starting sequence: USP37 docking peptide (human); PSAKRSLGFLPQP
PSAKRSLGFLPQA [P13A]: 0.00904
PSAKRSLGALPQP [F9A]: -0.165
PSAKRSLGFLAQP [P11A]: -0.197
PSAARSLGFLPQP [K4A]: 0.334
PAAKRSLGFLPQP [S2A]: 0.187
PSAKRSAGFLPQP [L7A]: -0.137

Study 6
Target: Centromere-binding protein 1, full length, His-tagged (CBF1, Saccharomyces cerevisiae, UniProt P17106, residues 1-351)
Sequence of UniProt P17106 (whole entry, looked up): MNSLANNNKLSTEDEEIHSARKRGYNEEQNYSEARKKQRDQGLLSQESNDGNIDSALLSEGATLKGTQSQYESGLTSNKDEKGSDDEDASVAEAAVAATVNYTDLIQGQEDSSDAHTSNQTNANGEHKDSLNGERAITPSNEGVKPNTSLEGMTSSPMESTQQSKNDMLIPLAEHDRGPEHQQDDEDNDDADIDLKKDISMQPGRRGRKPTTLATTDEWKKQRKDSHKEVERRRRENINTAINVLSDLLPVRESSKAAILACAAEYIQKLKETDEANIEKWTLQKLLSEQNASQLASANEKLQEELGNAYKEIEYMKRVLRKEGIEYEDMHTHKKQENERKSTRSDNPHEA
Technique: competition protein-binding microarray
Molecule type: double-stranded DNA, one strand shown
Medium: in vitro
Concentration: 2 µM
Notes: whole 60-bp probe, lowest competitor level
Together with: Pho4 competitor, 0.05 µM
Reading: higher = stronger binding
Quantity: fluorescence intensity
All sequences stand within: … GTCTTGATTCGCTTGACGCTGCTG
AAGAAATTACCGTCGCTCGTGATGGGTTTGCAAAAA: 199 a.u.
AAGTTAAAACCTGTTGTCGTGGGTAAATATGATAGT: 72.1 a.u.
CCGCGTTGAGCAGCTCTCCTGCGGGCTTTCACAGAG: 57.6 a.u.
CATACCCAACCTTGCAATGTGGGTGAAGATATTTGT: 77.3 a.u.
CGTCCTAGCGATTGAAAGGTGGGTGCCATGAGGAAG: 59.6 a.u.
TGCGCAACAACTTGTTAAGTGGGTGTATGTCTAGAA: 64.6 a.u.
CTTTCCCGATCTTTTCACGTGGTATTAGCACATTTG: 875 a.u.
TACATCCCTTTTACACCCGTGCAAAAAAGGTGTTTG: 96.2 a.u.
CATACCCAACCTTGAATGGTGGGTGAAGATATTTGT: 68.5 a.u.
CCCTTGCATCGCTGCCGTGTGGCGCGACCCACTGCG: 67.2 a.u.
AGCCGCAATACGTATCACATGGCTCAACCAATCTCG: 954 a.u.
AGCCACAGTTCGAGTCACGTGCGGACCATGCTGACT: 7850 a.u.
CATTTCTGTCCATGCCTCGTGCGGAAATGATTGAAT: 161 a.u.
TCGCTCTTCGCTCTGAATGTGACGGCAAATTTCGAC: 82.6 a.u.
AGAGAGAACTTTGGACACGTTTATAAAAATTGACGG: 135 a.u.
CCGCAGACTTTAAGTGCCGTGACGGGTTCCTGGTTA: 70.2 a.u.
GGTGAAGCCGGTATCGTCGTGCCGACCGCAGACTAC: 65.9 a.u.
CATACCCAACCTTGATGAGTGGGTGAAGATATTTGT: 76.7 a.u.
AACCTACAAAACACCGACGTGTTGAGCGTAAGAACC: 88.8 a.u.
CGGGGTTAAGTTTTTCACGTGTTATGCTTGCAGCAG: 1150 a.u.
GTCTTGTCTCATTTTCACGTGACTTTCCCCACTTCA: 4860 a.u.
CGTCCTAGTGATTGTGCAGTGGGTGCCATGAGGAAG: 84.5 a.u.
CGACATTCAGACCTACACGTACAAAACACGAATGCT: 87.5 a.u.
CAGAGTAATGACTGTCATGATGAAGGCAAAAGGAGA: 79.4 a.u.
CTTCTATGACCTCTTCACGTGGCCGAATGTTCTGTT: 780 a.u.

Study 7
Target: CEBPB, bZIP domain (human)
Technique: DHFR protein complementation
Medium: yeast
Notes: single substitutions, most at no-binding floor
Reference: wild-type JUN-FOS pair
Reading: higher = stronger binding
Quantity: binding fitness
Starting sequence: JUN, bZIP domain (human); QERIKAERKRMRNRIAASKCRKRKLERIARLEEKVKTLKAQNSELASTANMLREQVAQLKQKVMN; partner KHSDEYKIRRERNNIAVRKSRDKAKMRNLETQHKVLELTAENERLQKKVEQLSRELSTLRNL
A57Q: -1.33 natural log
E33N: -1.39 natural log
V56E: -1.45 natural log
E54I: -1.43 natural log
T48F: -1.43 natural log
V56N: -1.33 natural log
V56P: -1.52 natural log
L52C: -1.49 natural log
A46P: -1.48 natural log
V56A: -1.52 natural log
E44L: -1.39 natural log
L31H: -1.18 natural log
R53N: -1.4 natural log
L31K: -1.24 natural log
E33L: -1.34 natural log
L52M: -1.45 natural log
Q58R: -1.37 natural log
L31I: -1.25 natural log
V56R: -1.53 natural log

For quick reference, copied from above (study 3):
CCGAAGGA: 0.0109
AACGCTTG: -0.0602
CTTCGGTA: -0.0535
ACTATTCA: -0.183
ACCACTAC: -0.116
GTTACAGA: -0.123
ATAATCTC: -0.0528
